Results pooled from the literature.
A part holds a random share of what one study measured. Positions count from the first letter of the parent shown.

Study 1 — method: RNA Bind-n-Seq; molecule type: RNA; matrix: in vitro; tested at: 365 nM; baseline: no-protein control; direction: higher = stronger binding
Target: RNA binding protein fox-1 homolog 2, RRM domain, GST-SBP tag (RBFOX2, Homo sapiens, UniProt O43251-10, residues 100-194)
Notes: natural RNA segment, single round, ends assumed
Under “RBNS enrichment (R)”, `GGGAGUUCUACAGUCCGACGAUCGCCUCUAGACACUUGACUUACGAUCGUUAUUCCCCCAAUUCAUCAUAUUUUGUUUGUUAUCACCAGAGAUGCCUGAACUCAGUUAAGCGAGCAAUUGCUAGUUGUCUUGAUGGAAUUCUCGGGUGCCAA` is recorded as 1.11.
Under “RBNS enrichment (R)”, `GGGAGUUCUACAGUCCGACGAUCCCUGCCAAGCACCUUGAAUGGGAGGGGUCCUUCAAGUGGGCCGGGCUGGGGUCCAACGGGGGUGGGGGAGGUUCCUGCUCUGCCCCAGCUGGGUCCUACCCAGUCUUGUCUGGAAUUCUCGGGUGCCAA` is recorded as 0.385.
`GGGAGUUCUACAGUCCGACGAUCCACCGAAACCCGCGCCCAGGAGUAUGGCUGAGGCCUUGCCCACCCACCUGCCUGGGAAGUGCAGAGUGGAUGGACGGGUUUAGAGGGGAGGGGCGAAGGUGCUGUAAACAUGGAAUUCUCGGGUGCCAA`: “RBNS enrichment (R)” 0.864.
`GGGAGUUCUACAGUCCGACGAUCUCCAAGCUAUCAUGCUUAAGCUAUGUCAACAGCAUUUAUUUGUACUAAUGCUAAUAUUUCCAUCAAAAUUUGCCUGUGGAAUAUAUACAGUUCUUAAUUUUAAACUGUCAUGGAAUUCUCGGGUGCCAA` — result for “RBNS enrichment (R)”: 1.19.
`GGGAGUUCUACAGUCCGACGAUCUGCCCCCUCUCCUCCUUGGCACUGGCGGCCUCCUUGCCUCCCUUCCACCCGUGCUGCCAUCCCGUGCCUGUCGUGUUGGUUCUUCACACGUGCUCUGUUCUCGGGGUUGUUGGAAUUCUCGGGUGCCAA` — result for “RBNS enrichment (R)”: 0.509.
Under “RBNS enrichment (R)”, `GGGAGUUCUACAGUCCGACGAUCGAGGGACACCUGCUUAUUUUCCCCCGUGGGCCUCACUCUAUCCCUGAAAACAGUGAAUGUUAUAUGAGUUUGUUCUCAAGUUCUCUCUAGCCCUUUGGUAGUUUAUUCAUUGGAAUUCUCGGGUGCCAA` is recorded as 0.556.
`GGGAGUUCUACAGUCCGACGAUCACCCAGCUUGUGCCAUUGGGCAUUGAUGGCAUUGAACUAGAGCGAGUGCCUGCCUCGGCUGUGGCACUUCCAGGUUCGACUGAAUCAAGCAUCUGAAGACUGGGUUUUUUUGGAAUUCUCGGGUGCCAA`: “RBNS enrichment (R)” 0.995.
`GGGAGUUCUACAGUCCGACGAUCACCUCAUUAAAUGGUGAUUUCUUGCUAAGCUCCAGCCCGAGUGGUCUCCUCUCAGCUUCUAAUUUUGUGCUCUUUCCUGCCCUUUUCCUGGGCCUUCUCAGCUCUCCACCUGGAAUUCUCGGGUGCCAA`: “RBNS enrichment (R)” 0.661.
`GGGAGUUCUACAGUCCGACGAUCGACUAUGGUAGAGACUUGCUGCUCCUAACUCCCCAGUUACCCACCCUCCUCUGCCCUUUCUCGGGAUACCUUCUGUCCUUCCAUCCUGCCCUGUACUGCCCUCUGACUCCUGGAAUUCUCGGGUGCCAA`: “RBNS enrichment (R)” 1.72.

Study 2 — target: CCNB1, cyclin fold, Cln2 fusion (human); method: yeast growth competition, sequencing; matrix: yeast; notes: weak parent motif; baseline: not given; direction: higher = stronger binding
Starting sequence: RB1 docking peptide (human); PKPLKKLRFDIEG
For `F9N`, “normalised enrichment score” read 0.734.
Under “normalised enrichment score”, `P3D` is recorded as 1.19.
Under “normalised enrichment score”, `G13A` is recorded as 0.697.
For `P1F`, “normalised enrichment score” read 0.65.
Under “normalised enrichment score”, `R8V` is recorded as 0.736.
`I11R`: “normalised enrichment score” -0.0682.
For `K2E`, “normalised enrichment score” read 0.633.
Under “normalised enrichment score”, `L7T` is recorded as 0.486.
For `P3K`, “normalised enrichment score” read 0.594.
`F9T` — result for “normalised enrichment score”: 0.285.
`E12P` — result for “normalised enrichment score”: 1.
`K6I`: “normalised enrichment score” 0.401.
`P3H` — result for “normalised enrichment score”: 0.3.
`G13Y`: “normalised enrichment score” -0.445.
`G13H` — result for “normalised enrichment score”: 0.558.
`L7S`: “normalised enrichment score” 1.08.
`I11K` — result for “normalised enrichment score”: 0.649.
`G13Q` — result for “normalised enrichment score”: 1.81.
`K2R` — result for “normalised enrichment score”: 1.14.
`G13K` — result for “normalised enrichment score”: 0.829.
`G13S`: “normalised enrichment score” 1.06.
For `L4R`, “normalised enrichment score” read 0.557.
`K2F` — result for “normalised enrichment score”: 0.748.

Study 3 — method: RNA Bind-n-Seq; molecule type: RNA; matrix: in vitro; tested at: 200 nM; notes: whole 134-nt RNA, ends assumed; with: 150 mM LiCl; baseline: input library; direction: higher = stronger binding; each molecule: 7-deaza-guanosine replaces G
Target: Ras GTPase-activating protein-binding protein 1, full length (G3BP1, Homo sapiens, UniProt Q13283)
Sequence of UniProt Q13283 (whole entry, looked up): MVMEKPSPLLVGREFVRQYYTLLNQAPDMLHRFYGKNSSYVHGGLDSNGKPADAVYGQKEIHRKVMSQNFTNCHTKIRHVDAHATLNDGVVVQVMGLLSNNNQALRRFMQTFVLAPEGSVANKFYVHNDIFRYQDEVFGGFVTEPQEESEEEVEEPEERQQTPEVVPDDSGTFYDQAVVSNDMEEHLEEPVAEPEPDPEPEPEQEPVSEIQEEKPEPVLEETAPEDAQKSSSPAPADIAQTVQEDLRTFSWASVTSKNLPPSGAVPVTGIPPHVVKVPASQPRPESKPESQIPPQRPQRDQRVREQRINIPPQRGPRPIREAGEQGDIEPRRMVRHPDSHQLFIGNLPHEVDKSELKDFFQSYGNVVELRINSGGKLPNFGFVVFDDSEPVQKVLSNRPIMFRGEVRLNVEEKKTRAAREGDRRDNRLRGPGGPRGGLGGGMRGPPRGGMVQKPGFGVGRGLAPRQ
For `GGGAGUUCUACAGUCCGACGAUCAGUCCUGUGCUACACAUCGUAUGUACCGAAUCGUGUGUGUGUGUGUGUGUGUGUGUGUAAAGUAUUAUGUUACGCCGUUCGGAUCUGCACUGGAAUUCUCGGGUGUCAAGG`, the log2 enrichment was -0.632.
With `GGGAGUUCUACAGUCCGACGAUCACCAUGCAGGUGGGCAUCUUUGGGAAGUGGGGCAAGGGGGGGAUAGGGAGGGGGGUAACACUUUAAAAACAGGUGGUCCCAGGUCGUUUCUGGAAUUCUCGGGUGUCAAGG` the log2 enrichment was -0.178.
`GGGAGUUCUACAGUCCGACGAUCAGUCCUGUGCUACACAUCGUAUGUACCGAAUCGGGAAAAAGGGAAAAAAAGGGAGGGAAAGUAUUAUGUUACGCCGUUCGGAUCUGCACUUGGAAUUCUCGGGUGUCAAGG` gave a log2 enrichment of -0.516.
`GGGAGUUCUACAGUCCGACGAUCACCAUGCAGGUGGGCAUCUUUGGGAAGUGGGGCAAGGGGGGGAUAGGGAGGGGGGUAACACUUUGGGAACAUGUGGUCCCAGGUCGUUUCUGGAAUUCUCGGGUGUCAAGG` gave a log2 enrichment of 0.26.
For `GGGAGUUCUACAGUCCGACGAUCAAGUCCUGUGCUACACAUCGUAUGUACCGAAUCAAAUUUAAACCCAAAUUUUUAAAAAAGUAUUAUGUUACGCCGUUCGGAUCUGCACUUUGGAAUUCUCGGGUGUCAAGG`, the log2 enrichment was -1.11.
`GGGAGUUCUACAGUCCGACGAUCGUCCUGUGCUACACAUCGUAUGUACCGAAUCGGAAAAAGGGGAAAAAGGAAAAAGGGGAAAGUAUUAUGUUACGCCGUUCGGAUCUGCACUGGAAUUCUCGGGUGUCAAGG` has a log2 enrichment of 0.0686.
`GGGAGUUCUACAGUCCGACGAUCCUGUGCUACACAUCGUAUGUACCGAAUCGGGUUUUUUUGGGGUUUUUUUGGUUUUUUUGGGGAAAGUAUUAUGUUACGCCGUUCGGAUCUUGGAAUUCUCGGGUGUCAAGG` gave a log2 enrichment of 1.4.
For `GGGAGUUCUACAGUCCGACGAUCCUCAAGUCCUGUGCUACACAUCGUAUGUACCGAAUCGGGAGGGAGGGUUUGGGAAAGUAUUAUGUUACGCCGUUCGGAUCUGCACUUCCAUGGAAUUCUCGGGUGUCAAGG`, the log2 enrichment was -0.0696.
With `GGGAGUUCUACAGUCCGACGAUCCAAGUCCUGUGCUACACAUCGUAUGUACCGAAUCGGCCCCGGGCCCCGGCCCCGGGAAAGUAUUAUGUUACGCCGUUCGGAUCUGCACUUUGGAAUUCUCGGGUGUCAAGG` the log2 enrichment was -0.313.
With `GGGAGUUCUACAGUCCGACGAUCUGGGAGGUGGAUUUUGUUUAUUUUUUUAGCUCAGUUCCAGGGGUGGGAAUUUUUUUUUAAUAUGUGUCAUGAAUAAAGUUGUUUUUGAAAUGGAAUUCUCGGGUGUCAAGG` the log2 enrichment was 0.125.
`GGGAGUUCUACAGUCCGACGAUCAAGUCCUGUGCUACACAUCGUAUGUACCGAAUCAAAUUUAAACCCAAACCCCCAAAAAAGUAUUAUGUUACGCCGUUCGGAUCUGCACUUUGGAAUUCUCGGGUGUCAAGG` has a log2 enrichment of 1.19.

Study 4 — method: RNA Bind-n-Seq; molecule type: RNA; matrix: in vitro; tested at: not given; notes: RNA with constant flanks, ends assumed; baseline: input RNA pool; direction: higher = stronger binding
Target: RING finger protein unkempt homolog, zinc fingers 1-6, GST-SBP tag (UNK, Homo sapiens, UniProt Q9C0B0, residues 30-357)
Residues (chain): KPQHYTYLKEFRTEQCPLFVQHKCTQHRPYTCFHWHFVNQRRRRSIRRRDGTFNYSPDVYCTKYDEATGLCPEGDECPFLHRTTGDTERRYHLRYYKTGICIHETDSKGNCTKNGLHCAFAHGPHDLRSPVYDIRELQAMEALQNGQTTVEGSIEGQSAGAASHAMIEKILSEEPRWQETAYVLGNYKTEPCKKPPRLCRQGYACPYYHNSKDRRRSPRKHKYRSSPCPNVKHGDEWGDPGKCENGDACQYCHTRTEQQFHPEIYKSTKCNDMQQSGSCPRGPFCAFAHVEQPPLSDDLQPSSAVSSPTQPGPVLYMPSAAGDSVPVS
With `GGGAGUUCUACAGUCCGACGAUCUCAUGUAGUUCGUUUUUAAUUUCAAGCAAAUCUUAUUGUACUUGAAUGUGCCCUGUUUUGUCCGCACACCUAGACUUGCUGUAACUGUACUCAUGUCCCAGUAUGUACCUUCUUUCUAUGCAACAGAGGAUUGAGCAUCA` the bound/input enrichment was 1.53 ratio.
`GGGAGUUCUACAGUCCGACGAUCGACAGCAGUAGGGAAAUUAGGUGCAGAAUGUUAAGUUCAACCACGGGGCUUUCACCAGGUCCGGUUGUCAAACUCCCCAACAUUGGCAGCUACUGUUUGGGUGGACCCCACACUUGCCUGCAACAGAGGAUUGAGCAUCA` has a bound/input enrichment of 0.36 ratio.
`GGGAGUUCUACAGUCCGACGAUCGGUGGGGUGGUCAUUGCCGUUUGAGCUGCUGAUUUUCAUGAGUCGCCUUCAAAACUCUCGUGCCGGGUUGACAAUGUGGGGGGGUGGGGGAUCCAGCUUAUUCUUUUAUUUUCAAGUCCACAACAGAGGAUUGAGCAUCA` has a bound/input enrichment of 0.479 ratio.
`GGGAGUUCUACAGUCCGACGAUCUUGGUGUCUAGAGCUCACCAGCUAGUGAUGGAGGGAUAUAACUGGUGCCAUGACCGGAAUGCCGUAACGAUUUUCAGUGCUCCAAACUAUUGUUAUCGUUGUGGUAACCAAGCUGCAAUCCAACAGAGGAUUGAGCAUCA` has a bound/input enrichment of 0.922 ratio.
For `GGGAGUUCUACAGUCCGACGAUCAUGAAGGAGGCAUUUGGCUUUAUUGAAAGAGGUGAUGUUGUAAAAGAGAUAUUCUUUCACUACCGUGAAUUUAAGGGUGACUUAGAAACCUUACAGCCUGGCGAUGAUGUGGAAUUCACACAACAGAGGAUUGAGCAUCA`, the bound/input enrichment was 0.208 ratio.
`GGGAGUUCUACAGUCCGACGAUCUAUUUUUACAGCCACACAAUUCUUGGCAUGUAUUAAGAAAAAAAAAAAUCCCUGUUCAAGCCGUUUUUCCACCUAUCAGCACUGAGUAAAUGCCAUAAAUCCAUUGAAAUGGUCUAAAUGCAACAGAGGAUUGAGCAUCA` gave a bound/input enrichment of 0.292 ratio.
With `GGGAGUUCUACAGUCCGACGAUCGGACUGGAGUACCUUGCGUGCAGUUAUGUCGGCGUCGGUAGUGUCUGUCAUUUCGCGGUUCUCCGAAGAGUACUUGAGCUCCACUCCGCAGCGUCUGAAGUUGCUGGACGCGUACCUGCUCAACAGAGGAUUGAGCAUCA` the bound/input enrichment was 0.0812 ratio.
`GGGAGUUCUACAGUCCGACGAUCAAAGGAGAAUCUGGCCAGUCAUGGCCAAGGUUAACAAAAGAAAGGGCAAAGCUUAAUUGGCUCCGUGUCGACUUCAAUAAUUGGAAAGACUGGGAAGAUGAUUCAGAUGAAGACAUGUCUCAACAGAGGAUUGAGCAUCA` gave a bound/input enrichment of 0.236 ratio.
With `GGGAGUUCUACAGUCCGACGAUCCUUAGAGAGCUUGAAGCUAAAGCCUACAAACAAAUUGAGGCCUGUGGUGGGAACCCUUCACCCGUGGCUUUAGUCAAGCACUUAAGUAAGAUGUUCACAGAAGAAAAUAAAUAAUACUAUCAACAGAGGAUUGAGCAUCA` the bound/input enrichment was 0.829 ratio.
`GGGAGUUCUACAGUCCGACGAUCUGGAAAGAUGAAUUCAAGGCACACUCAAGGGUGAAGUGUCCAAACUCAGGGUGCUGGCCCGAGUUCCCCAGCAUCUAUGGGCUCAAGUACCACUAUCAGCGGUGCCAAGGGGUAAGGGGCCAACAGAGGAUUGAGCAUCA` has a bound/input enrichment of 0.182 ratio.
The bound/input enrichment of `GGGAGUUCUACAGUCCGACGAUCAUGCUCUUAGAAGCUGAAAAUGACAAAGAGGUCGAAAUUCUUAAAGACAUCCGAGCACAUUUCCGCGCCAUGGUUGCCAACUUGAUCCAGUGUGUUCCAGUUCAUCACAGAAGAUUUCUCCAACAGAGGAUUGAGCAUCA` is reported as 0.141 ratio.
